Measurements gathered from unrelated publications.
Parts stem from different laboratories: compare values within a part only. Several values in a cell are separate wells, animals, samples, runs or records.
Sequence of UniProt P62344 (whole entry, looked up): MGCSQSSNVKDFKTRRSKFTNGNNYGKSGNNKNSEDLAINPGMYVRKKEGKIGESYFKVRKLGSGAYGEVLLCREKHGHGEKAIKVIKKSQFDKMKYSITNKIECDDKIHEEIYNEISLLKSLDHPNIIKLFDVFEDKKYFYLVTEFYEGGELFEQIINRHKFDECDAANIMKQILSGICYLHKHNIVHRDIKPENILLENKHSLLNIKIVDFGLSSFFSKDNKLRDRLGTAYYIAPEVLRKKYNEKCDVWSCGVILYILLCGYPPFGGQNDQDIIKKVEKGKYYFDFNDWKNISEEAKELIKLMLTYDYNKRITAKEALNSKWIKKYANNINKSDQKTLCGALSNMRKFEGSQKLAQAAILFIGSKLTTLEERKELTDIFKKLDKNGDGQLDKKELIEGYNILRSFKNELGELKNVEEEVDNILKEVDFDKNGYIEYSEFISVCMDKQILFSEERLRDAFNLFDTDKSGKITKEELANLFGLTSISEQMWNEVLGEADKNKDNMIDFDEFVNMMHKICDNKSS
Sequence of UniProt P23458 (whole entry, looked up): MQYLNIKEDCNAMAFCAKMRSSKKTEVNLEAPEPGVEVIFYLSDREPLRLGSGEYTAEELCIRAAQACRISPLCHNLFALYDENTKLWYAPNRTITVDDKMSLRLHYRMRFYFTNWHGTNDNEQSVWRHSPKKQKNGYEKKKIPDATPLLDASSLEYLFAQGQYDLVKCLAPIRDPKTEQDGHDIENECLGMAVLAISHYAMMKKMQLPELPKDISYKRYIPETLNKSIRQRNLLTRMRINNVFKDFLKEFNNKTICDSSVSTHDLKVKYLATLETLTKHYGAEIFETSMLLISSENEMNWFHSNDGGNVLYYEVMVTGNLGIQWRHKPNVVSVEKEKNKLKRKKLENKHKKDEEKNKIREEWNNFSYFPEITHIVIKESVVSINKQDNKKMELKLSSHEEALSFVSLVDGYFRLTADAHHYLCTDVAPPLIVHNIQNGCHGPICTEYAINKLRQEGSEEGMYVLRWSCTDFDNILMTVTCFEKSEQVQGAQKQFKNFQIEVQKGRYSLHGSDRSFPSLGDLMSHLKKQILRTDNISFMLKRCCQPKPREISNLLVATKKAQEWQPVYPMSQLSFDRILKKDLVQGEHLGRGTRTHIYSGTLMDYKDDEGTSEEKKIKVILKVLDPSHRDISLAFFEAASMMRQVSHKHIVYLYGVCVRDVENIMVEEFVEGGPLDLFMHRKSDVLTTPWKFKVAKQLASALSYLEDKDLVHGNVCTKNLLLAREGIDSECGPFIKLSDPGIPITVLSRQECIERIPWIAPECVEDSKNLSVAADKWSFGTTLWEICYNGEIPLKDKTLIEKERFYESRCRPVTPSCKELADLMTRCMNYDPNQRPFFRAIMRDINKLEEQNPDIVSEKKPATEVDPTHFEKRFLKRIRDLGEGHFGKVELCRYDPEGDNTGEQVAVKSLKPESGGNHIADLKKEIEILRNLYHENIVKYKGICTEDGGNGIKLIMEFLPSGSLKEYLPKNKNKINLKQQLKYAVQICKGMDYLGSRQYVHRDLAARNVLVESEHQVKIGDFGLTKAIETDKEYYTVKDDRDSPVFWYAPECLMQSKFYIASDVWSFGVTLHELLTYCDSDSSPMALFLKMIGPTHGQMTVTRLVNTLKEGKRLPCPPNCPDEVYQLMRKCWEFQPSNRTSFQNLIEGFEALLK
Sequence of UniProt Q15835 (whole entry, looked up): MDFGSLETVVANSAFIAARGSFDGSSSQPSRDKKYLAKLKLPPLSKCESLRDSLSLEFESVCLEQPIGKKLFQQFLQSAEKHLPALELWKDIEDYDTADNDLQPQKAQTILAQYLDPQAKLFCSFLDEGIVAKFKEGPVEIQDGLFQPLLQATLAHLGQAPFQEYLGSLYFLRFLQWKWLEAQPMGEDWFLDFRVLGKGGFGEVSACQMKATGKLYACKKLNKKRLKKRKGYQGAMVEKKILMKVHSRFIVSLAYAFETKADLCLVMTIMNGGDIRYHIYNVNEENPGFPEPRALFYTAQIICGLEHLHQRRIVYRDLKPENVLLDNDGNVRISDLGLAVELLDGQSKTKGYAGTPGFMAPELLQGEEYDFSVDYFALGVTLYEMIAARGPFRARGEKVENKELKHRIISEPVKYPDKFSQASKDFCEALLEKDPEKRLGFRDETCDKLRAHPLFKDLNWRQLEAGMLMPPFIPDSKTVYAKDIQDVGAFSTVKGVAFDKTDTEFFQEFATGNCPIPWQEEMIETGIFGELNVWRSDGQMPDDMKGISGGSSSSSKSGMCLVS
Sequence of UniProt P25100 (whole entry, looked up): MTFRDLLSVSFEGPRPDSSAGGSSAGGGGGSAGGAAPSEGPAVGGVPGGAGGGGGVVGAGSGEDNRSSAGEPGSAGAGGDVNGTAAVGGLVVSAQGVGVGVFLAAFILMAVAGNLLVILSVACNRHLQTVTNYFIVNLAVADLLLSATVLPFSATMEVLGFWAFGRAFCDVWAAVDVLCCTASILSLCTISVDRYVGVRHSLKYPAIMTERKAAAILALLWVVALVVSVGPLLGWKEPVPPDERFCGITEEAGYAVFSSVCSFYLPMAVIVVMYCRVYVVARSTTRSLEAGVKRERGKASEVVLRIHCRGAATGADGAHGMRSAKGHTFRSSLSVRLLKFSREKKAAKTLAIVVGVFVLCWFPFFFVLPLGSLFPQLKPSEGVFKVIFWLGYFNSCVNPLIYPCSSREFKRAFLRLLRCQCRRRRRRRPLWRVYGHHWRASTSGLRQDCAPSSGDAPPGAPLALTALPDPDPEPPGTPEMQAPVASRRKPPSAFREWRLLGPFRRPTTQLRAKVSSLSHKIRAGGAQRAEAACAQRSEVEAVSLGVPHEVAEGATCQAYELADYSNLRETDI
Sequence of UniProt P49841 (whole entry, looked up): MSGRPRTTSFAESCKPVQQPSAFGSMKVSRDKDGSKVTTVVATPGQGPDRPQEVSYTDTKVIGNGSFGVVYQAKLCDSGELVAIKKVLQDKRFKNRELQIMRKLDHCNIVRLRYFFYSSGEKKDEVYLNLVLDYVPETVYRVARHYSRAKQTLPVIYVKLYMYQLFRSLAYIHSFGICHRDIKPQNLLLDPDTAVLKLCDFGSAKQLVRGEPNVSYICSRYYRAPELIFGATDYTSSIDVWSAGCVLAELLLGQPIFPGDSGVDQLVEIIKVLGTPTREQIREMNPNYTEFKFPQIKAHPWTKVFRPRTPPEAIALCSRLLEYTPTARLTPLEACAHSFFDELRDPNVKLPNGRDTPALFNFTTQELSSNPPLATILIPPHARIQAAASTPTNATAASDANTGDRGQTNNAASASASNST
Sequence of UniProt P21802 (whole entry, looked up): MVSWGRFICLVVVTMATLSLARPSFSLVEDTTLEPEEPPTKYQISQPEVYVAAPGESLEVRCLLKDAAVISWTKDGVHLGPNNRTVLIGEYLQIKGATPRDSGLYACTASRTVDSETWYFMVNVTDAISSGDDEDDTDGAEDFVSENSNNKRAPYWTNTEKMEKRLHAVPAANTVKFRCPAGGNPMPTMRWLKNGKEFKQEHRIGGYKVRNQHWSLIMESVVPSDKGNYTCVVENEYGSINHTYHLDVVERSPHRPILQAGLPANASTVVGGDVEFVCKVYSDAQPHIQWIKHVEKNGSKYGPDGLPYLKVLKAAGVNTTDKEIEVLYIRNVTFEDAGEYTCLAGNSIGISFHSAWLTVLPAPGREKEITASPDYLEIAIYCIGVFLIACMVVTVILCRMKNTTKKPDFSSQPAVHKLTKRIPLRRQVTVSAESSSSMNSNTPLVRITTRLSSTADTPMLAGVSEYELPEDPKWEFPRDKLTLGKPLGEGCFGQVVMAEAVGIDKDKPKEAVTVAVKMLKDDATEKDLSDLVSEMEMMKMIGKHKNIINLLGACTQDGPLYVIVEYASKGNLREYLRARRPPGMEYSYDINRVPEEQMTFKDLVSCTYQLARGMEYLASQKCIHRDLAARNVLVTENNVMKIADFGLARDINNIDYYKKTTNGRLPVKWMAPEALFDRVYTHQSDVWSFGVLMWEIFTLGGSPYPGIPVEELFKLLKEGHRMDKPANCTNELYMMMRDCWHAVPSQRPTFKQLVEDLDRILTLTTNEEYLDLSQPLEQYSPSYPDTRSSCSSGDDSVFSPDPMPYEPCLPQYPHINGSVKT
Sequence of UniProt P31749 (whole entry, looked up): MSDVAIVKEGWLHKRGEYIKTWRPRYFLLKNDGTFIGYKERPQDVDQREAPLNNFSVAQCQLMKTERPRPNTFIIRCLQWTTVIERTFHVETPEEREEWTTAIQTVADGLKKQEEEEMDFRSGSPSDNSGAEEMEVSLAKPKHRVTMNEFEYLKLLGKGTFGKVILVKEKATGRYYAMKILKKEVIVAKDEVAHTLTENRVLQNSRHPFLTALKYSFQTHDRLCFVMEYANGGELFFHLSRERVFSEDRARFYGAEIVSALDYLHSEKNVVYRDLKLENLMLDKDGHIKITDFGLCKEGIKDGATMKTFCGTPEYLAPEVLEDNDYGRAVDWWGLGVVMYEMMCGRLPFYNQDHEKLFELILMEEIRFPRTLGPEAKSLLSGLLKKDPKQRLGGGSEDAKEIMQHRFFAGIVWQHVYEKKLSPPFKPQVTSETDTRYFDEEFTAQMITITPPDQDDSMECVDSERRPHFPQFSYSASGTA
Sequence of UniProt P61075 (whole entry, looked up): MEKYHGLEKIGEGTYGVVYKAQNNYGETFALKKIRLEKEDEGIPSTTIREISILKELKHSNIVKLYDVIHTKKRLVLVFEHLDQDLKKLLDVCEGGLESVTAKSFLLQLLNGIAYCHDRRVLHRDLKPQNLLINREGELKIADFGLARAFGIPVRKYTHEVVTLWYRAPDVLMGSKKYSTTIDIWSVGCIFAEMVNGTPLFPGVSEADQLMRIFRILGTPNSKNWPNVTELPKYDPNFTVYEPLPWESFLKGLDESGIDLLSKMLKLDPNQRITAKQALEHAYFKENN

Block 1 — cell line: mouse MPNST tumor cells; method: high-content nuclear imaging; refers to: cell number; concentration: 10 µM; time: 12 h; setting: mean of 2 replicates; reference: plate mean; direction: higher = more cells
| SMILES | nuclei count |
| --- | --- |
| C[C@H](N)[C@H](O)c1ccc(O)c(O)c1 | 1.93 z-score |
| Clc1ccc(OC[C@H]2CCN2)cn1 | 0.0306 z-score |
| C[C@]12CC[C@H](O)C[C@H]1CC[C@@H]1[C@@H]2CC[C@]2(C)[C@@](O)(c3ccoc3)CC[C@]12O | 1.26 z-score |
| N[C@@H]1C[C@H]1c1ccccc1 | -1.56 z-score and 0.577 z-score |

Block 2
Compound: CNC(=O)c1ccc(-c2cnn3ccc(C(=O)N(C)c4ccc(Cl)c(C(=O)O)c4)cc23)cc1
| target | assay | IC50 |
| --- | --- | --- |
| Tribbles homolog 2 (TRIB2, Homo sapiens, UniProt Q92519) | enzyme activity, inhibitor | 11.9 µM |
| Vascular endothelial growth factor receptor 1 (FLT1, Homo sapiens, UniProt P17948) | enzyme activity, inhibitor | > 30 µM |
| Tyrosine-protein kinase JAK1 (JAK1, Homo sapiens, UniProt P23458) | enzyme activity, inhibitor | > 30 µM |
| RAC-alpha serine/threonine-protein kinase (AKT1, Homo sapiens, UniProt P31749) | enzyme activity, inhibitor | > 30 µM |
| Rhodopsin kinase GRK1 (GRK1, Homo sapiens, UniProt Q15835) | enzyme activity, inhibitor | > 30 µM |
| Fibroblast growth factor receptor 2 (FGFR2, Homo sapiens, UniProt P21802) | enzyme activity, inhibitor | > 30 µM |
| Serine/threonine-protein kinase pim-1 (PIM1, Homo sapiens, UniProt P11309) | enzyme activity, inhibitor | > 30 µM |
| Glycogen synthase kinase-3 beta (GSK3B, Homo sapiens, UniProt P49841) | enzyme activity, inhibitor | 25 µM |
| 5-hydroxytryptamine receptor 1A (HTR1A, Homo sapiens, UniProt P08908) | cell-free assay | > 30 µM |
| cAMP-dependent protein kinase catalytic subunit alpha (PRKACA, Homo sapiens, UniProt P17612) | enzyme activity, inhibitor | > 30 µM |
| Proto-oncogene tyrosine-protein kinase receptor Ret (RET, Homo sapiens, UniProt P07949) | enzyme activity, inhibitor | > 30 µM |
| RAF proto-oncogene serine/threonine-protein kinase (RAF1, Homo sapiens, UniProt P04049) | enzyme activity, inhibitor | > 30 µM |
| Mitogen-activated protein kinase kinase kinase 2 (MAP3K2, Homo sapiens, UniProt Q9Y2U5) | enzyme activity, inhibitor | > 30 µM |
| Wee1-like protein kinase (WEE1, Homo sapiens, UniProt P30291) | enzyme activity, inhibitor | > 30 µM |
| Protein kinase C theta type (PRKCQ, Homo sapiens, UniProt Q04759) | enzyme activity, inhibitor | > 30 µM |
| rat benzodiazepine receptor | binding | > 30 µM |

Block 3 — cell line: HaCaT; concentration: 100 µM; time: 36 h
| SMILES | viability [%] |
| --- | --- |
| C=C1CC[C@@]2(O)[C@H]3Cc4ccc(O)c5c4[C@@]2(CCN3CC2CC2)[C@H]1O5 | 95.6 |
| CNC(=O)Oc1ccccc1OC(C)C | 97.2 |
| CC(NC(C)(C)C)C(=O)c1cccc(Cl)c1 (centres unmarked) | 90.4 |
| Nc1ccncc1 | 99.1 |

Block 4 — species: C57BL/6 CES1-/- mouse, both sexes
SMILES: CC(=O)N[C@@H](Cc1c[nH]c2ccccc12)C(=O)N[C@@H](CCC(=O)C=[N+]=[N-])C(=O)OC(C)C
| conditions | body weight |
| --- | --- |
| 1 mg/kg, day 14 | 100% and 90.9% and 97% and 105% and 93.1% |
| 0.1 mg/kg, day 10 | 95.5% and 100% and 96.2% and 105% and 96.6% |
| 1 mg/kg, day 11 | 93.1% and 100% and 90.9% and 105% and 93.9% and 95.5% |

Other studies, line by line
| SMILES | target or system | assay | system | conditions | endpoint | value |
| --- | --- | --- | --- | --- | --- | --- |
| CC(=O)Nc1c(C(C)=O)c(=O)n(C)c2nc(-c3ccc(Cl)cc3Cl)c(-c3ccc(Cl)cc3)cc12 | Nociceptin receptor (OPRL1, Homo sapiens, UniProt P41146) | binding, radioligand binding |  |  | Ki | > 10 µM |
| O=C1CCC(N2Cc3c(ccc4c3OCC43CCN(Cc4ccccc4)CC3)C2=O)C(=O)N1 (centres unmarked) |  |  | ICR mouse, male, plasma | intravenous, 1.0 mg/kg | Vss | 3.97 L/kg |
| CSc1cccnc1N1CCN(Cc2nc3ccccc3[nH]2)CC1 | Calcium-dependent protein kinase 1 (CDPK1, Plasmodium falciparum, UniProt P62344) | cell-free assay, competition with immobilised ligand |  | 1 µM | remaining binding | 89% |
| O=C1NC(c2ccccn2)Sc2ccccc21 (centres unmarked) | Cyclin-dependent kinase 2 homolog (CRK2, Plasmodium falciparum, UniProt P61075) | cell-free assay, competition with immobilised ligand |  | 1 µM | remaining binding | 100% |
| Cc1c(N2CCNCC2)nc2ccc(Br)cc2c1C(=O)NC[C@H](CCC(=O)O)c1ccccc1Cl | Alpha-1D adrenergic receptor (ADRA1D, Homo sapiens, UniProt P25100) | ligand displacement |  | 10 µM | inhibition | 16% |

Repeated from above (block 1):
| SMILES | nuclei count |
| --- | --- |
| C[C@H](N)[C@H](O)c1ccc(O)c(O)c1 | 1.93 z-score |
| Clc1ccc(OC[C@H]2CCN2)cn1 | 0.0306 z-score |
| C[C@]12CC[C@H](O)C[C@H]1CC[C@@H]1[C@@H]2CC[C@]2(C)[C@@](O)(c3ccoc3)CC[C@]12O | 1.26 z-score |
